{"data": "Experimental data from different studies", "note": "Parts stem from different laboratories: compare values within a part only. Positions count from the first letter of the parent shown.", "UniProt Q9Y2X8, sequence (whole entry, looked up)": "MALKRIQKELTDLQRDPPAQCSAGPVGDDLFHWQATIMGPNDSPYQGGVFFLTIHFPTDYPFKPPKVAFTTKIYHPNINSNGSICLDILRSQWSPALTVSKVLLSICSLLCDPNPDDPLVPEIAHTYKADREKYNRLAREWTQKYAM", "UniProt P68036, sequence (whole entry, looked up)": "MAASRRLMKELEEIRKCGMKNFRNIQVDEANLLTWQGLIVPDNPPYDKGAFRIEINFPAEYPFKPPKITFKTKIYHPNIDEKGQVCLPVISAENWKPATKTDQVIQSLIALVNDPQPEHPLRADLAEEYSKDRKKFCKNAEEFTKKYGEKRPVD", "UniProt Q9C0C9, sequence (whole entry, looked up)": "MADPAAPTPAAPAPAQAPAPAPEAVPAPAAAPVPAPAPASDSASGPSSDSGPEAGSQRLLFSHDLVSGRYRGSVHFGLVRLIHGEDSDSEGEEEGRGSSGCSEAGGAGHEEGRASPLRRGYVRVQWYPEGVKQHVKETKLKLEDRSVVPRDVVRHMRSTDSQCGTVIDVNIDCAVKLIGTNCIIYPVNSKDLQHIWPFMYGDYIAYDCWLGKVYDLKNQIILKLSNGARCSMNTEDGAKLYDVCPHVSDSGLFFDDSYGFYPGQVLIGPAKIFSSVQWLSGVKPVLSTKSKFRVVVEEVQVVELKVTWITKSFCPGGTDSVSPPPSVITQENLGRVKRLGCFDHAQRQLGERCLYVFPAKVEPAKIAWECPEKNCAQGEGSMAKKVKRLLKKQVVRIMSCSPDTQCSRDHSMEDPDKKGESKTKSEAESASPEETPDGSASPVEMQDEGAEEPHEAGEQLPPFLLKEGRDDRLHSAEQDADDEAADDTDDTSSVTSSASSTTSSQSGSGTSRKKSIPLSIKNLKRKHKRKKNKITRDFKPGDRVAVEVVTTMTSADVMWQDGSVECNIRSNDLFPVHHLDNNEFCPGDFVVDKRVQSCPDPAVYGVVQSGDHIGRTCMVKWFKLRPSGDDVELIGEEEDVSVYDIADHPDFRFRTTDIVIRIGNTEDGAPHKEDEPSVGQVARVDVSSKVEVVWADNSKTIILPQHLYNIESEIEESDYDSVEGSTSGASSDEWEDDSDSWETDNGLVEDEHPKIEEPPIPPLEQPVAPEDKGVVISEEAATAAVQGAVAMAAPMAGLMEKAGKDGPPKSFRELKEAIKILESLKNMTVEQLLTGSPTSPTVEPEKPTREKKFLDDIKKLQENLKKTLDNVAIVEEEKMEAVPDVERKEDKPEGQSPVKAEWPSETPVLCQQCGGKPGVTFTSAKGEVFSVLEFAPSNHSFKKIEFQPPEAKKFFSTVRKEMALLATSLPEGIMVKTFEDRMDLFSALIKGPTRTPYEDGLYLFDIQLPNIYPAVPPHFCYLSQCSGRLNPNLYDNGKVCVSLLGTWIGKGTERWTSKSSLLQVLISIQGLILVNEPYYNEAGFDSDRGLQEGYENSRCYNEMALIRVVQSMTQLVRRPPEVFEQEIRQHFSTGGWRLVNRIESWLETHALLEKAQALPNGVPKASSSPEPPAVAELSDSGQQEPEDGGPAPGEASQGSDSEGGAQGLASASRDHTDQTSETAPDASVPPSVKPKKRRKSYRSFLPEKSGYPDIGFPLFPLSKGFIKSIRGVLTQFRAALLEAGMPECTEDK", "UniProt Q7Z7E8, sequence (whole entry, looked up)": "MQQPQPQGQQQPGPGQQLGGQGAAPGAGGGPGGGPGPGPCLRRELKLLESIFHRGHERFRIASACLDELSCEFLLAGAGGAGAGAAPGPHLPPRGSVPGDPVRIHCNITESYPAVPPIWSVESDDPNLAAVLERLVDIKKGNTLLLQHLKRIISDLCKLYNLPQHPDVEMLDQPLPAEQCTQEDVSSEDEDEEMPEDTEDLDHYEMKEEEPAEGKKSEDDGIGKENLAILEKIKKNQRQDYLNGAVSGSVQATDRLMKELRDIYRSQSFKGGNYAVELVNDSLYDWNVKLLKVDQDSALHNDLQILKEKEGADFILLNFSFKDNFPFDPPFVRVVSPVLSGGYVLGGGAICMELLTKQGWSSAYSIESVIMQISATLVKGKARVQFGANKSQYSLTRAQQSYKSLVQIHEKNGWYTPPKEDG", "UniProt Q9NPD8, sequence (whole entry, looked up)": "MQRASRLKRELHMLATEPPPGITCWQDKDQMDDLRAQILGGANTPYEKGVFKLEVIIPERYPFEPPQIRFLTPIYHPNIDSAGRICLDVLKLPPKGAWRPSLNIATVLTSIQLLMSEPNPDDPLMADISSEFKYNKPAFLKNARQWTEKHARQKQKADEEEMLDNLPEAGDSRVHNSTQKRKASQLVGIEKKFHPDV", "UniProt P62837, sequence (whole entry, looked up)": "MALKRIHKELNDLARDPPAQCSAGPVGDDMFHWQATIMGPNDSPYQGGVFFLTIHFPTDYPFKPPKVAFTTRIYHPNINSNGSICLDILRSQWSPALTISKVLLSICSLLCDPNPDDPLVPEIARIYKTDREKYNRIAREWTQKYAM", "UniProt Q9Y385, sequence (whole entry, looked up)": "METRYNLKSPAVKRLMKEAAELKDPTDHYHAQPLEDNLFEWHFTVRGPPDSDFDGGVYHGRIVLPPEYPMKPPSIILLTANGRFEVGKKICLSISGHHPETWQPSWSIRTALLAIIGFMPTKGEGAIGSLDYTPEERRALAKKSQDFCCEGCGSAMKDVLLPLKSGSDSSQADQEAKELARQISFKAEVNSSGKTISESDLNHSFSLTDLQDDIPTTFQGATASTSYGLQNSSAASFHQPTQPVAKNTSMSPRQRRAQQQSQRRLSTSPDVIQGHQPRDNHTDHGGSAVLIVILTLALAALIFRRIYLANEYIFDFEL"}
{"data": "Block 1", "target": "RNA binding protein fox-1 homolog 2, RRM domain, GST-SBP tag (RBFOX2, Homo sapiens, UniProt O43251-10, residues 100-194)", "technique": "RNA Bind-n-Seq", "molecule type": "RNA", "medium": "in vitro", "concentration": "365 nM", "notes": "natural RNA segment, single round, ends assumed", "reference": "no-protein control", "direction": "higher = stronger binding", "shared flanks, not repeated": "GGGAGUUCUACAGUCCGACGAUC … UGGAAUUCUCGGGUGCCAA", "Target sequence (chain)": "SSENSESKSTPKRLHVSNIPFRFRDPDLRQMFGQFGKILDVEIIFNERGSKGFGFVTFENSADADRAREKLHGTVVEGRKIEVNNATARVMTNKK"}
{"Oligonucleotide": "CUCUACUCUUGCUCAAGAAGUAAUACGACAAUCAGAAUACAAACCAGUAAGGCAACACGAAUAAACUAAGAAAAAGGUAAGAACUGUCUCAAAAACGAAAGCACACCACC", "RBNS enrichment (R)": 0.514}
{"Oligonucleotide": "ACCCAGUCUUGUCCCCUGAAUUUUAUCUGUGUGCUGGGUGGCCUGGCUGAUGCAGAGGCCUGCUAAGAGAACGUACUCUUACCUGCUGCCAGUGAGACAUCGUAUCUGUG", "RBNS enrichment (R)": 1.4}
{"Oligonucleotide": "UUGCACAUCAUGGAGGGUUUAGUGCUUAUCUAAUUUGUGCCUCACUGGACUUGUCCAAUUAAUGAAGUUGAUUCAUAUUGCAUCAUAGUUUGCUUUGUUUAAGCAUCACA", "RBNS enrichment (R)": 0.719}
{"Oligonucleotide": "UGAGCUGUGAGUGGUUAGUGCAUUGCUGGUAUUGCUGAAGGCAGGGUUGAUCCCUCACUUGACUGAUACUUGCAUUCAAGAGAAUCUAGAUUGUGUUGGGGGAGGGACUG", "RBNS enrichment (R)": 0.555}
{"Oligonucleotide": "UUGAGAAAUGUGAACAUGCUGUGGGGCUGAGCCUCUGCUAUAUCACCGUGAGCUGUAGGAUCAGCUGGCUGGCUGGGUUGGUGAGUGCCUACCUUGAGGUCUCAUGAAAG", "RBNS enrichment (R)": 0.491}
{"Oligonucleotide": "UGGGAGGAUUGCUUGAGCGCAGGAGGCGGAGGUUGUAGAGCCAAGAUCACACCACUGCACUCCAGCCUGGGUGACAGAGCAAGACCCUGUCUCAAAAAAAAAAAAAAAAA", "RBNS enrichment (R)": 0.742}
{"Oligonucleotide": "UUUUCUGACUGAGCCAAUAGUGGUUGGGGAACUCUUGAAAAAGGGGAGAGAAUGGCUGGGUGCUGGGGAGUUCCCCCCUCCGAGCCCUCCUUCCCGGCCCAACCUGAGGG", "RBNS enrichment (R)": 0.186}
{"Oligonucleotide": "UCGGGAAGCUGAGGCAGGUGAAUUGUUUGAACCUGGGAGGUGGAGGUUGCAGUGAGCAGAGAUCACACCACUGCACUCUAGCCUGGGUGACAGAGCAAGACUCUGUCUAA", "RBNS enrichment (R)": 0.494}
{"Oligonucleotide": "CCUUGAGAGAGAACCUGGGCUAGGGCUAGAGUUAGGGCUACAUACUCCAAGGUGACCUCACAUUUGACUAUCAAAUGAAGUGUUGUGAUUGGGAAGCGUAGAGGCAGGGC", "RBNS enrichment (R)": 0.529}
{"Oligonucleotide": "CUCCGAGUUUGUGUGUCUAGAACUUGGAUGUUUCCAUAAGGAAAACAGAACUGUGGUAUUGUUUCGAGAAGAAUUAAGUAAAGUUUAAUCUUUCUGAACUCCUGACUUAC", "RBNS enrichment (R)": 0.731}
{"Oligonucleotide": "CUAGAAAAUGCUUUUAAUGUCUCAACUCUCUCUUUUCUGUGUCAUGUUUUGGUAGGAAAUCUUUAAGAUUGGCGGACGGAACAGGUAUUUUAGUGAGACACUUCUGAGUA", "RBNS enrichment (R)": 0.338}
{"Oligonucleotide": "CCCUACCCCUCUCCCCCAAAUGCAGCUGAAGCAUUUUACAGUGGUUUGCCAUUAGGGUAUUCAUUCAGAUAAUGUUUUCCUACUAGGAAUUACAAACUUUAAACACUUUU", "RBNS enrichment (R)": 0.737}
{"data": "Block 2", "target": "CCND3, cyclin fold, Cln2 fusion (human)", "technique": "yeast growth competition, sequencing", "medium": "yeast", "notes": "weak parent motif", "reference": "not given", "direction": "higher = stronger binding", "parent": "SLBP docking peptide (human); ARYKRKLLINDFG"}
{"Variant": "ARYKRPLLINDFG [K6P]", "normalised enrichment score": 0.164}
{"Variant": "ARYKRVLLINDFG [K6V]", "normalised enrichment score": 0.19}
{"Variant": "ARYKRKLLINDVG [F12V]", "normalised enrichment score": 0.116}
{"Variant": "ARYKRKLLHNDFG [I9H]", "normalised enrichment score": 0.18}
{"Variant": "ARYKRKSLINDFG [L7S]", "normalised enrichment score": 0.0859}
{"Variant": "ARYKFKLLINDFG [R5F]", "normalised enrichment score": 0.0966}
{"Variant": "ARYKRKLLINDFT [G13T]", "normalised enrichment score": 0.101}
{"Variant": "ARYKRKLLILDFG [N10L]", "normalised enrichment score": 0.201}
{"Variant": "ARYCRKLLINDFG [K4C]", "normalised enrichment score": 0.0899}
{"Variant": "ARYKRKKLINDFG [L7K]", "normalised enrichment score": 0.12}
{"Variant": "ARYWRKLLINDFG [K4W]", "normalised enrichment score": 0.233}
{"Variant": "ARYERKLLINDFG [K4E]", "normalised enrichment score": 0.0817}
{"Variant": "ARYKRKLLIKDFG [N10K]", "normalised enrichment score": 0.156}
{"Variant": "ARYKRKLLIDDFG [N10D]", "normalised enrichment score": 0.125}
{"Variant": "ARYKRALLINDFG [K6A]", "normalised enrichment score": 0.208}
{"Variant": "ARYKKKLFINDFG [R5K L8F]", "normalised enrichment score": 0.183}
{"Variant": "ARSKRKLLINDFG [Y3S]", "normalised enrichment score": 0.213}
{"Variant": "CRYKRKLLINDFG [A1C]", "normalised enrichment score": -0.0109}
{"Variant": "ARYKSKLLINDFG [R5S]", "normalised enrichment score": 0.181}
{"Variant": "WRYKRKLLINDFG [A1W]", "normalised enrichment score": 0.141}
{"data": "Block 3", "Molecule": "B1 (RNF25 RING domain)", "technique": "yeast two-hybrid", "medium": "yeast", "notes": "mostly zero background", "reference": "not given", "direction": "higher = stronger interaction", "B1": "RNF25 RING domain (UniProt Q96BH1); chain LTDNNIPHGQCVICLYGFQEKEAFTKTPCYHYFHCHCLARYIQHMEQELKAQGQEQEQERQHATTKQKAVGVQCPVCREPLVYDLASL"}
{"target": "UBE2Q1 UBC core domain (UniProt Q7Z7E8)", "lacZ reporter activity": 0}
{"target": "UBE2D4 UBC core domain (UniProt Q9Y2X8)", "lacZ reporter activity": 8070}
{"target": "UBE2T UBC core domain (UniProt Q9NPD8)", "lacZ reporter activity": 0}
{"target": "UBE2J1 UBC core domain (UniProt Q9Y385)", "lacZ reporter activity": 0}
{"target": "UBE2O UBC core domain (UniProt Q9C0C9)", "lacZ reporter activity": 0}
{"target": "UBE2L3 UBC core domain (UniProt P68036)", "lacZ reporter activity": 0}
{"target": "UBE2D2 UBC core domain (UniProt P62837)", "lacZ reporter activity": 8310}
{"data": "Block 4", "target": "ABI1, truncated, D143A, DHFR fusion (Arabidopsis thaliana)", "technique": "DHFR PCA, deep sequencing", "medium": "yeast", "notes": "methotrexate growth selection, single substitutions", "with": "(+)-ABA 1.4 µM", "reference": "wild-type fitted maximum", "direction": "higher = stronger binding", "parent": "PYL1, truncated, DHFR fusion (Arabidopsis thaliana); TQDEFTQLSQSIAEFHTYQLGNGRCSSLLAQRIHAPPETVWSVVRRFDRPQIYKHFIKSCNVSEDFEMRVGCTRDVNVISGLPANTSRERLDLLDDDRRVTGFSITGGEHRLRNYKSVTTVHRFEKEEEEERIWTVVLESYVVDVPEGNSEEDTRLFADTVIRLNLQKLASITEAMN"}
{"Variant": "V145R", "relative binding score [%]": -10.7}
{"Variant": "T39M", "relative binding score [%]": 60.9}
{"Variant": "T73G", "relative binding score [%]": -0.455}
{"Variant": "H55F", "relative binding score [%]": 53.3}
{"Variant": "V100W", "relative binding score [%]": -5.41}
{"Variant": "E89V", "relative binding score [%]": -0.0225}
{"Variant": "R45D", "relative binding score [%]": -2.9}
{"Variant": "R155S", "relative binding score [%]": 4.54}
{"Variant": "E151M", "relative binding score [%]": 44.5}
{"Variant": "S26N", "relative binding score [%]": -11}
{"Variant": "Q10A", "relative binding score [%]": 83.8}
{"Variant": "R155G", "relative binding score [%]": -21.1}
{"Variant": "V118Q", "relative binding score [%]": -11.5}
{"Variant": "M176L", "relative binding score [%]": 40.9}
{"Variant": "L29I", "relative binding score [%]": 64.7}
{"Variant": "I52P", "relative binding score [%]": -3.66}
{"Variant": "D3N", "relative binding score [%]": 18.6}
{"Variant": "N177S", "relative binding score [%]": 65.9}
{"Variant": "E131Y", "relative binding score [%]": 44.7}
{"Variant": "R24V", "relative binding score [%]": 45.9}
{"Variant": "T106F", "relative binding score [%]": 56.8}
{"Variant": "S104N", "relative binding score [%]": 3.93}
{"Variant": "Q51N", "relative binding score [%]": 3.43}
{"Variant": "I79S", "relative binding score [%]": 26.7}
{"Variant": "L29Q", "relative binding score [%]": 8.7}
{"data": "Block 5", "target": "Centromere-binding protein 1, full length, His-tagged (CBF1, Saccharomyces cerevisiae, UniProt P17106, residues 1-351)", "technique": "competition protein-binding microarray", "molecule type": "double-stranded DNA, one strand shown", "medium": "in vitro", "concentration": "2 µM", "notes": "whole 60-bp probe, lowest competitor level", "with": "Pho4 competitor, 0.05 µM", "direction": "higher = stronger binding", "shared flanks, not repeated": "… GTCTTGATTCGCTTGACGCTGCTG", "UniProt P17106, sequence (whole entry, looked up)": "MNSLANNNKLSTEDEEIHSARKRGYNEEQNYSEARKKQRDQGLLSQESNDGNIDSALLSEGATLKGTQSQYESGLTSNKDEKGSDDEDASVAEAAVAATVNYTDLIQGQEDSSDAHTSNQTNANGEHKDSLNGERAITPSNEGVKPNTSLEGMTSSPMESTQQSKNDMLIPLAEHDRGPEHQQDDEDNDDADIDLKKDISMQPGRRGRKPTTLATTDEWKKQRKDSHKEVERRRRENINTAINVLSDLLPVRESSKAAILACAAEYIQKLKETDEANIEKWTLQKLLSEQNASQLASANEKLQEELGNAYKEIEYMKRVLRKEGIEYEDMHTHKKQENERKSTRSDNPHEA"}
{"Oligonucleotide": "CTATGATCTTGTATTCATGTGATTGTAAATAATATT", "fluorescence intensity": "691 a.u."}
{"Oligonucleotide": "TGCGCAACAACTTGCATGGTGGGTGTATGTCTAGAA", "fluorescence intensity": "66.6 a.u."}
{"Oligonucleotide": "GTCTTGTCTCATTGCATAGTGGGTGTCCCCACTTCA", "fluorescence intensity": "68.2 a.u."}
{"Oligonucleotide": "CGTCCTAGCGATTGAAACGTGGGTGCCATGAGGAAG", "fluorescence intensity": "125 a.u."}
{"Oligonucleotide": "CGTCCTAGCGATTGACTCGTGGGTGCCATGAGGAAG", "fluorescence intensity": "85.7 a.u."}
{"Oligonucleotide": "CTTCTGTAAATTTTACACGTGTTTTGACGCGCCCCG", "fluorescence intensity": "1010 a.u."}
{"Oligonucleotide": "TTTGTTTTCATCTGGGTTGTGACAGTTGATGATAAC", "fluorescence intensity": "83.9 a.u."}
{"Oligonucleotide": "GCTGATATCTACGTACATGTGTATACTTGCCAATAT", "fluorescence intensity": "133 a.u."}
{"Oligonucleotide": "CTTTCCCGATCTTGAGGCGTGGGTGTAGCACATTTG", "fluorescence intensity": "78.5 a.u."}
{"Oligonucleotide": "CTTTCCCGATCTTGTCACGACACTTTAGCACATTTG", "fluorescence intensity": "262 a.u."}
{"Oligonucleotide": "AAATTACTAAGTTGGGGAGTGGGTGACGCCGTATGA", "fluorescence intensity": "57.4 a.u."}
{"Oligonucleotide": "CCAGATGCTGATTTGCACGTGTTGGGATCATATTCT", "fluorescence intensity": "1270 a.u."}
{"Oligonucleotide": "CGTCCTAGTGATTGTCCGGTGGGTGCCATGAGGAAG", "fluorescence intensity": "85.2 a.u."}
{"Oligonucleotide": "CACCGATTGCGTAATCTCCTGTACACGGTTCAAGAA", "fluorescence intensity": "83.4 a.u."}
{"Oligonucleotide": "ATGGACAATAACGACCACGTGGGTAACGCAATGACT", "fluorescence intensity": "2070 a.u."}
{"Oligonucleotide": "AAATTACTAAGTTGTCACAATACTTACCCCGTATGA", "fluorescence intensity": "96.3 a.u."}
{"Oligonucleotide": "ACTAAAAGGCGCTGGCACGATTTTCTTTGATGCTAA", "fluorescence intensity": "65.1 a.u."}
{"Oligonucleotide": "TTGCCATCTGTCCGTCACACTTTGTTCAACAACTAC", "fluorescence intensity": "84.4 a.u."}
{"note": "Excerpt of the above (block 3):"}
{"target": "UBE2J1 UBC core domain (UniProt Q9Y385)", "lacZ reporter activity": 0}
{"target": "UBE2O UBC core domain (UniProt Q9C0C9)", "lacZ reporter activity": 0}
{"target": "UBE2L3 UBC core domain (UniProt P68036)", "lacZ reporter activity": 0}
{"target": "UBE2Q1 UBC core domain (UniProt Q7Z7E8)", "lacZ reporter activity": 0}
{"target": "UBE2T UBC core domain (UniProt Q9NPD8)", "lacZ reporter activity": 0}
{"target": "UBE2D4 UBC core domain (UniProt Q9Y2X8)", "lacZ reporter activity": 8070}
{"target": "UBE2D2 UBC core domain (UniProt P62837)", "lacZ reporter activity": 8310}
